# Published values gathered from unrelated publications.
# Parts stem from different laboratories: compare values within a part only. Changes are numbered by the printed parent chain.

# Block 1
# Target: CCNE1, cyclin fold, Cln2 fusion (human)
# Method: yeast growth competition, sequencing
# Sample: yeast
# Notes: weak parent motif
# Baseline: not given
# Direction: higher = stronger binding
# Starting sequence: CDT1 docking peptide (human); PPARRRLRLSVDE
Substitution,normalised enrichment score
R5K L9F,0.75
D12A,1.75
R5A L7A,-0.373
E13A,1.32
P2A,0.923
R4A,0.404
R5A,-0.425
L9F,4.31
V11A,0.592

# Block 2
# Target: RNA binding protein fox-1 homolog 2, RRM domain, GST-SBP tag (RBFOX2, Homo sapiens, UniProt O43251-10, residues 100-194)
# Method: RNA Bind-n-Seq
# Molecule type: RNA
# Sample: in vitro
# Tested at: 365 nM
# Notes: natural RNA segment, single round, ends assumed
# Baseline: no-protein control
# Direction: higher = stronger binding
# All sequences stand within: GGGAGUUCUACAGUCCGACGAUC … UGGAAUUCUCGGGUGCCAA
# Residues (chain): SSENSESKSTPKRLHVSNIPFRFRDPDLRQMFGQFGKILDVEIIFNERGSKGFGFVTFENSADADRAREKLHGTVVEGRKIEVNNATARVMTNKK
Oligonucleotide,RBNS enrichment (R)
AAGAUUGUCUGCUUACUCAUUUUUAAAAAUUAAAGAAAUGAACAAUCAGUGUGGCUAUUCCUAGCAAGGUGGUAUUCGUUGGGUUUUUUGUCCUGGUUUUAUUCCCUCCA,0.466
ACAGACAUGGGACUACAUCAUAAGAUGAUUAGAAUGUUGGACAGCGUAGUAUGCAGCCAGUGGUUAGUUAUUACAAAGAUCCCUUAGUUACUGUAUUGUUUGCUUUCCUU,0.568
AAUCAAAACCCUCAGAGGGUCCUGAUGAGCAGAGAGUCUUUCCCUGGCCUUUCGAGCUUCAGAGAUGGGAGUCUGAUGGCAGUGUCCUGCUUGGAGAAGGCCCAGGGGUG,0.325
UCUAUCAGGCCACCAGCAGGAAUUGAAAAUGUUUUCACAAAAAUCCUUUUCCUUAGAAAUAAAAGCUGGUGACAGAGAUGGUUUCCUUGUACCGAUAAAAACAAAACCAA,0.342
UUCAUGCUUUAUCAAUAGCCCAGGAUAUAUUUUAUUUUUAGAAUUUUGUGAAACAGACUUGUAUAUUCUAUUUUACAACUACAAAUGCCUCCAAAGUAUUGUACAAAUAA,0.669
AUUAUUUUCUAUCAUACAGUUUUCAUUGGUUAUAUGAGUAUGUCUACCCAAUAAAUCACUGAAUUUAUGUUGCUGGCGUUUUGUUGGUGACUCUUCAUGGUAGGUACCAU,0.4
UUUUAUUUAUGUCCUUGUGACCCAGGUACUUGGGGGGCCAGCUACCCUUCUGGCCUUUUAGCGUCUUUGAAGGAGACCAGACAUGAGUGAAUACCUAGGAGAGUGUCAGC,0.38
UAUGAAUAUGUUAAAGCUGGUGGCUCAGCUGGGAGAUUUAUAUGGGUCACUGUGCGAGCUUCCUUAUGACUUGAAUUUUGUUGUCACAUGAUAAAAGUUUCUGUGUAGCU,0.634
UUAGCCCUAGGGUGGUCCCAACCAUGUGAUGUCUGGAGCAUAGGAUGCAUUCUUAUUGAAUACUAUCUUGGGUUUACCGUAUUUCCGACACACGAUAGUAAGGAGCAUUU,0.307
CCCUGACAUCACUCAGCACUCACUUGCUACCAAUUCUAUUUAUUUCGGAAUUACAAGAUAGCGGGAAUCUCUCUGCAGGCUGGACUGGCAGGCUGUGGGGUGGGCGGGAC,0.358
UGUUGUUUGUAGAAGACCUCACUGGGGUCUCAGAUAAGCAGGUAAAAUAAACCUCAGGGUUUAUCUUGAGGUGCCAGAAGUCCCACUCAUGUUUCACAAGAAACCUCUUA,0.196
AACUGAUAUUCAAAAUAUUAAACAUUUGUUAUUUUGUAUAAACCUUUAAGUAAAAAUAUGCUGUUUUAAUAUUUAAUUUAGUAGAAUUAACAAAAACUUUUUAAUAGUCA,1.19

# Block 3
# Target: Sal-like protein 4, full length isoform A (SALL4, Homo sapiens, UniProt Q9UJQ4, residues 1-1053)
# UniProt Q9UJQ4, sequence (whole entry, looked up): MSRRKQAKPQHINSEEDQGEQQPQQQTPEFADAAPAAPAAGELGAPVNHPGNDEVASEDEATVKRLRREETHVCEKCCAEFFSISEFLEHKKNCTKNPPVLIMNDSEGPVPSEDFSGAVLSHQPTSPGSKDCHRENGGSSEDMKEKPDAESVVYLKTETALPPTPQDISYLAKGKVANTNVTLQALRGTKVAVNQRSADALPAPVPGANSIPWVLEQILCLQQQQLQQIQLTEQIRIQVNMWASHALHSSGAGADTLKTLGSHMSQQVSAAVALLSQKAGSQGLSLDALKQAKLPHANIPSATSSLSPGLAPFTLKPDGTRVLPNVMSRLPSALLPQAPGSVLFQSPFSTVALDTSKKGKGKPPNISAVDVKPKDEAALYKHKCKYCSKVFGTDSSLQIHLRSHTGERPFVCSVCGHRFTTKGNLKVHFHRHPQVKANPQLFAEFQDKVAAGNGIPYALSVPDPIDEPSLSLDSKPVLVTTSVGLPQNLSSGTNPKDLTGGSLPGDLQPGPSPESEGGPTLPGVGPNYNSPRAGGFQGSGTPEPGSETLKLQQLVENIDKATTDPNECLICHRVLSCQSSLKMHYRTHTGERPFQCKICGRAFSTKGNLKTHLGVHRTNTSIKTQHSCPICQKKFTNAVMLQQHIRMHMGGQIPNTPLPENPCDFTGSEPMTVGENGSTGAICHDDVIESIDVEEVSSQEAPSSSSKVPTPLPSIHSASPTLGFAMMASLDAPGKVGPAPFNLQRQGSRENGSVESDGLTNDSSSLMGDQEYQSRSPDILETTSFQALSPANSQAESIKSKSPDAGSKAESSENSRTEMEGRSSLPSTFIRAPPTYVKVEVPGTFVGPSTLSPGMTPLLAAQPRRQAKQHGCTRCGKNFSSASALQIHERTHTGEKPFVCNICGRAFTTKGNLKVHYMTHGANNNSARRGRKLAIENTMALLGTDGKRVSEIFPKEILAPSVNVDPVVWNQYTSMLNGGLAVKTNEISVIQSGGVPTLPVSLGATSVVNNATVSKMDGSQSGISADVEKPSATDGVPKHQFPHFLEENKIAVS
# Method: universal PBM
# Molecule type: double-stranded DNA, one strand shown
# Sample: in vitro
# Tested at: 600 nM
# Notes: 8-mer, flanks averaged, mean of replicates
# Direction: higher = stronger binding
Oligonucleotide,E-score
CGGTCAAC,-0.112
GTCTGATA,0.0748
CCATGGAC,-0.305
CCCCCGTA,-0.362
AATGTCGT,0.0703
AAGCTAGT,0.15
GGCACTGA,-0.104
ACAATTGT,0.213
CCCGTTAG,-0.283
CAGGTGCC,-0.298
CGCGGGGC,-0.316
CTATGCAG,0.0949
CCGCTGCG,-0.352
ACTGACCT,-0.0372
GACTGGAC,-0.266
CAAAATTG,0.199
ATCTCAAA,0.271
ATGTCCTG,-0.103
GCTGAAAC,0.0299
AGGCACAT,0.0266
CAGACCTA,0.0261
ATACCATA,0.327
ACAAGACG,-0.0763
CATACTTC,0.21
AGAAAATC,0.177

# Block 4
# Target: Interferon regulatory factor 5, full length, phosphomimetic (IRF5, Homo sapiens, UniProt Q13568-2, residues 1-514, K96S/S451D/S453D/S456D/S462D)
# Method: protein-binding microarray
# Molecule type: double-stranded DNA, one strand shown
# Sample: in vitro
# Tested at: 250 nM
# Notes: 60-bp whole probe
# Together with: salmon DNA 0.4 mg/ml
# Baseline: random background probes
# Direction: higher = stronger binding
# All sequences stand within: GCCTAGCAC … GTCTTGATTCGCTTGACGCTGCTG
Oligonucleotide,log fluorescence [z-score]
ACCTGAGTCCCTATCTCCTCGTGCTAG,-0.522
TTAGGAATCGGGTATCGGTTAGTGCTA,4.97
TGCTTTCTCCCAAGTCTTGTTGTGCTA,3.01
TCATCTCTCTTTCCACTACTGTGCTAG,1.03
GACGGTATCCTAGTGCTGACGTGCTAG,-0.288
GACGGTCTCGGACTGGCGACGTGCTAG,-0.452
TCAACATTCACCATGGCACTGTGCTAG,0.472
TTAGATAGCGGGTATCGATTAGTGCTA,3.33
TCATGTGTCAGGTTTACTACTGTGCTA,0.128
GGCGATATCGGGACTGGAGACGTGCTA,0.611
CAGCCAATCAGGACTCAGGGAGTGCTA,-0.482
TTAGATTTCAGACTGGATGAGTGCTAG,0.34
GACGGCATCGGACTGGGGACGTGCTAG,-0.616
TTAGGAATGGGGTATCGGTTAGTGCTA,2.66
TCACTTTCCCAGCCTGGGACTGTGCTA,0.542
CCCTTATTCTAGCCTCCATTTGTGCTA,0.623
GACGAATTGAGTTTCGAGACGTGCTAG,5.1
TTAGGTTTCGGATTGGGTTAGTGCTAG,6.71
TCATAAACCATTTTGGTACTGTGCTAG,0.524
GCAGGTCTGGACCCAGACTCGTGCTAG,-0.648
ACTTCCCTCGGGTTGCGGAGCGTGCTA,-0.165
CTTTCTCTCTGTGACACAGAGTGCTAG,2.58
GTAGGTTTCGGACTGGGTTAGTGCTAG,4.86
GACGCACTGCTTTTCCTGACGTGCTAG,-0.0697

# For quick reference, copied from above (block 3):
Oligonucleotide,E-score
CGCGGGGC,-0.316
CTATGCAG,0.0949
CCGCTGCG,-0.352
ACTGACCT,-0.0372
GACTGGAC,-0.266
CAAAATTG,0.199
ATCTCAAA,0.271
ATGTCCTG,-0.103
